Experimental data collected from several papers.
Lines come from different studies, so protocols differ. ≈ marks a conversion by molar mass, not a printed value.
4'-phosphopantetheinyl transferase PptT: 4'-phosphopantetheinyl transferase PptT (Mycobacterium tuberculosis, UniProt O33336)
Sequence of UniProt O33336 (whole entry, looked up): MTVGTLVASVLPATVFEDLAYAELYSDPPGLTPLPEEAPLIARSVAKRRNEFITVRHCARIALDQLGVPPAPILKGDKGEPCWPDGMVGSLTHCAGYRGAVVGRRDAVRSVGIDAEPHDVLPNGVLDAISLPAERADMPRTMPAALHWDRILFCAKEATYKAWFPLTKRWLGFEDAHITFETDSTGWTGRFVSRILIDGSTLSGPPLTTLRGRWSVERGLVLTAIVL
Sequence of UniProt Q13546 (whole entry, looked up): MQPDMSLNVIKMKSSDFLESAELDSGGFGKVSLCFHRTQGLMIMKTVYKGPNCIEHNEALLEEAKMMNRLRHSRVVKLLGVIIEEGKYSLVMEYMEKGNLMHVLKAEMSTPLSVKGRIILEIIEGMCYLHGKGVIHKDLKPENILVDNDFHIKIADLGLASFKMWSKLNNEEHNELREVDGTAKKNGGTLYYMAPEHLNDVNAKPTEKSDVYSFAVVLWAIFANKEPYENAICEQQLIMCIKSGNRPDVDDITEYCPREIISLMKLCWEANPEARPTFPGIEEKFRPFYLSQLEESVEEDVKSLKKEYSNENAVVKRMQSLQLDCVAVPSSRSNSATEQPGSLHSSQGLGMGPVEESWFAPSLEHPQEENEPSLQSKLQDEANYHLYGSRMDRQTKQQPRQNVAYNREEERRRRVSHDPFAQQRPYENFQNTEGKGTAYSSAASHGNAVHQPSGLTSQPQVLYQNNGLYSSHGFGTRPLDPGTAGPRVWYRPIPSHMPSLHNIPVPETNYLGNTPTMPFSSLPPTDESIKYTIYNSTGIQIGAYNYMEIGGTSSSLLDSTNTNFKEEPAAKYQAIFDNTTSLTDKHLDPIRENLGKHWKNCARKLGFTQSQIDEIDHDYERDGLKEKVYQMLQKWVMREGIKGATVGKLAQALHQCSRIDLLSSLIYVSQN
Sequence of UniProt Q13131 (whole entry, looked up): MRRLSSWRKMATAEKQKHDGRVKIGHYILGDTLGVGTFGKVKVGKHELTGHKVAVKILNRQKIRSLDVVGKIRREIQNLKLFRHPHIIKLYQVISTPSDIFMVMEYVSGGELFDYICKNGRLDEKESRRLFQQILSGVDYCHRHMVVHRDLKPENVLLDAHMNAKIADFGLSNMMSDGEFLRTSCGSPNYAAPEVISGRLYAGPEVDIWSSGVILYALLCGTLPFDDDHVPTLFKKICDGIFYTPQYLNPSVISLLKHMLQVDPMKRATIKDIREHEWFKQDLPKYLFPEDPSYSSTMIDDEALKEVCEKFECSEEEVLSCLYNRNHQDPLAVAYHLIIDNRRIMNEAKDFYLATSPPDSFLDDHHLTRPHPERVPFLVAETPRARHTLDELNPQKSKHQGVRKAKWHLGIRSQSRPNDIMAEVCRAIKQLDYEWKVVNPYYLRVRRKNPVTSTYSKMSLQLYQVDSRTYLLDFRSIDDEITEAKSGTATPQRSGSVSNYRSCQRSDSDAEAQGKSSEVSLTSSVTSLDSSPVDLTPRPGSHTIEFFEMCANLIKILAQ
Sequence of UniProt Q96PN8 (whole entry, looked up): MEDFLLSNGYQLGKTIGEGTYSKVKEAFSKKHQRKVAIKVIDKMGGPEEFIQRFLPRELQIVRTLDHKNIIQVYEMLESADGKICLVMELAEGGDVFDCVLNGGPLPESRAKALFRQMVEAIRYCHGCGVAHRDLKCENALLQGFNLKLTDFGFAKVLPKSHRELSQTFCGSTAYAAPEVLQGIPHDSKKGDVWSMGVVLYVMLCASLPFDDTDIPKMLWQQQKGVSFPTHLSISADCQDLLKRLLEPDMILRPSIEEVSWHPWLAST
Sequence of UniProt P42336 (whole entry, unmodified, looked up): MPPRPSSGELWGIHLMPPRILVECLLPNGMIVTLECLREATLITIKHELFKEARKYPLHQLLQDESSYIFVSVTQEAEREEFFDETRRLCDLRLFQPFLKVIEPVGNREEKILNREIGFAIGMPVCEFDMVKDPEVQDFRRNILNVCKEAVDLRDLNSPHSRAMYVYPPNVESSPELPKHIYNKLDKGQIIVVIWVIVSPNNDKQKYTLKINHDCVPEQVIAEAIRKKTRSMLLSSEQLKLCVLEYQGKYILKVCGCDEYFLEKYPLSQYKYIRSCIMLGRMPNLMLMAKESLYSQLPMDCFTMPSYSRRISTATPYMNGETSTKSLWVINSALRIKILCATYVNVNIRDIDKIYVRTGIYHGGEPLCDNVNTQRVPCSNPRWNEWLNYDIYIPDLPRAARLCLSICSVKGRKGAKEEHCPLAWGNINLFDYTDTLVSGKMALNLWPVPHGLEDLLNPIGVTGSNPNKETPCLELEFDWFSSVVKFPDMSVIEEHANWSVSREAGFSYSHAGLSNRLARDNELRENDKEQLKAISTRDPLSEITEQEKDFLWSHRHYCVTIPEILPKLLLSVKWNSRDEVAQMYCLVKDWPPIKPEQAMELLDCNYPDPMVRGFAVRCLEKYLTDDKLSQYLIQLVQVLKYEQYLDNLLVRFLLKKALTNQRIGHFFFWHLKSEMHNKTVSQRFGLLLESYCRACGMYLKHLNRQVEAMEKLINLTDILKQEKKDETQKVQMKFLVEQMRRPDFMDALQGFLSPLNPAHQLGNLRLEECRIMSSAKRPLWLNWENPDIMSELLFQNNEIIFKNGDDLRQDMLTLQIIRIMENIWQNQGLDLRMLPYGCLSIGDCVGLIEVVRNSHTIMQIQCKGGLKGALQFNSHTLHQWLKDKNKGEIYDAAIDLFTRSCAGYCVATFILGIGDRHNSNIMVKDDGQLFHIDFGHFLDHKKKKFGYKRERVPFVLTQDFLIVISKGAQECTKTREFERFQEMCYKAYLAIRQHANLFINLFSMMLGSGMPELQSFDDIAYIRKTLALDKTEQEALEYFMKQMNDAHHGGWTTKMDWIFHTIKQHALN

Compound	tested on	assay	system	setting	endpoint	value
Nc1ncc(-c2nc(N3CCOCC3)nc(N3CCOCC3)n2)c(C(F)F)n1	RIPK1 (Homo sapiens, UniProt Q13546)	binding, competition with immobilised ligand		10 µM	remaining binding	91%
CN1CC[C@]23c4c5ccc(O)c4O[C@H]2c2[nH]c4ccccc4c2C[C@@]3(O)[C@H]1C5			pig, plasma	intravenous, 30 µg/kg	half-life	2.68 h
CC(C)C[C@H](NC(=O)[C@@H](NC(=O)c1ccc(C(F)(F)F)cc1)C(C)C)C(=O)N[C@H](C=O)C[C@@H]1CCCNC1=O	A549	cell growth or viability, MTT		24 h	CC50	> 100 µM
CCOC(=O)C1=C(CN2CCC[C@@H]2C(=O)Nc2cccc(B(O)O)c2)NC(c2nccs2)=N[C@@H]1c1ccc(F)cc1Br	HepDES19	cell growth or viability, MTS		72 h	CC50	42.5 µM
CN(C)CCC(c1cccnc1)n1c(=S)[nH]c2ccc(Cl)cc2c1=O (stereo not shown)	4'-phosphopantetheinyl transferase PptT	enzyme activity, inhibitor, FP			IC50	20.4 µM
COc1ncccc1-c1cnn2ccc(N3CCN(C(=O)OC(C)C)CC3)nc12	PRKAA1 (Homo sapiens, UniProt Q13131)	binding, competition with immobilised ligand		1 µM	remaining binding	56%
CC(C)C[C@@H]1NC(=O)[C@@H](CCCNC(=N)N)NC(=O)[C@@H](Cc2ccc(O)cc2)NC(=O)[C@H]2CCCN2C(=O)[C@H](CC(C)C)NC(=O)[C@H](CC(C)C)NC(=O)[C@@H]2CCCN2C(=O)[C@H]([C@@H](C)O)NC(=O)[C@H]([C@@H](C)O)NC(=O)CNC(=O)CNC1=O			aqueous buffer	18 h, pH 7.4	thermodynamic solubility	607 µM (≈ 710 µg/mL)
CC(C)C[C@H](NC(=O)[C@H](Cc1ccccc1)NC(=O)[C@H](Cc1ccccc1)NC(=O)Cc1ccc(-c2ccccc2)cc1)C(=O)N[C@@H](CCCCN)C(=O)N[C@@H](CCCNC(=N)N)C(=O)N[C@H](C(=O)N[C@@H](Cc1c[nH]c2ccccc12)C(=O)N[C@@H](CCCCN)C(=O)N[C@@H](CCCNC(=N)N)C(=O)O)C(C)C		metabolic stability	rat, liver microsomes	15 min	compound remaining	38.4%
CONC(=O)[C@H]1[C@@H](O)[C@@]2(O)c3c(OC)cc(OC)cc3O[C@@]2(c2ccc(OC)cc2)[C@@H]1c1ccccc1			aqueous buffer	pH 7.4	kinetic solubility	42 µg/mL (≈ 82.8 µM)
[2H]c1c([2H])c([C@]2([2H])CCCN2C(=O)C(C)(C)Oc2ccc3cn[nH]c3c2)c([2H])c([2H])c1C([2H])([2H])[2H]	TSSK3 (Homo sapiens, UniProt Q96PN8)	binding, competition with immobilised ligand		1 µM	remaining binding	98%
Cc1ncc2n1-c1ccc(Cl)cc1C(c1ccccc1F)=NC2		metabolic stability	monkey, hepatocytes	1 µM, 4 h	compound remaining	4%
C#Cc1ccc2c(c1)C(c1ccccn1)=NCc1c(-c3cnco3)ncn1-2.Cl			water	40 min, 37 °C	kinetic solubility	2740 µg/mL
CC(C)C[C@H](CN)CC(=O)O			mouse	oral, 2000 mg/kg, single dose	LD50	> 2000 mg/kg
CC(=O)NCCC(c1cccnc1)n1c(=S)[nH]c2ccc(Cl)cc2c1=O (stereo not shown)	4'-phosphopantetheinyl transferase PptT	enzyme activity, inhibitor, FP			IC50	2.78 µM
Cc1nn(C)cc1-c1nc2c(N3CCN(Cc4ccc(Cl)cc4)CC3)c(Cl)cnc2[nH]1	PIK3CA (Homo sapiens, UniProt P42336, M1043I)	binding, competition with immobilised ligand		1 µM	remaining binding	92%
CC[C@H](C)[C@H]1C(=O)N[C@@H](Cc2ccc(O)cc2)C(=O)N2CCC[C@H]2C(=O)N[C@H]([C@H](C)O)C(=O)N[C@@H](CC(C)C)C(=O)N[C@@H](C(C)C)C(=O)N[C@@H](C)C(=O)N[C@@H](C)C(=O)N[C@@H](CO)C(=O)N[C@@H](Cc2ccccc2)C(=O)NCC(=O)N[C@H](C(=O)O)CSSC[C@H](N)C(=O)N1C			aqueous buffer	18 h, pH 7.4	solubility	851 µM (≈ 1150 µg/mL)
N=c1c2c(-c3ccccc3)c(-c3ccccc3)n(Cc3ccccc3)c2ncn1[C@H]1CC[C@H](O)CC1			female minipig, plasma	oral, 2.5 mg/kg, single dose	AUC(0-t)	73500 ng·h/mL
O=C[C@H](C[C@@H]1CCCNC1=O)NC(=O)[C@@H](NC(=O)/C=C/c1ccccc1)c1ccccc1	A549	cell growth or viability, MTT		24 h	CC50	> 100 µM
CC[C@H](C)[C@H]1C(=O)N2CCC[C@H]2C(=O)N[C@@H](CO)C(=O)N[C@H]([C@H](C)O)C(=O)N[C@H](Cc2ccc(O)cc2)C(=O)N[C@@H](CC(C)C)C(=O)NCC(=O)N[C@@H](C(C)C)C(=O)N[C@@H](C)C(=O)N[C@@H](Cc2ccccc2)C(=O)N2CCC[C@H]2C(=O)N1C			aqueous buffer	18 h, pH 7.4	thermodynamic solubility	585 µM (≈ 679 µg/mL)

Some of these lines once more:
Compound	tested on	assay	system	setting	endpoint	value
CC[C@H](C)[C@H]1C(=O)N[C@@H](Cc2ccc(O)cc2)C(=O)N2CCC[C@H]2C(=O)N[C@H]([C@H](C)O)C(=O)N[C@@H](CC(C)C)C(=O)N[C@@H](C(C)C)C(=O)N[C@@H](C)C(=O)N[C@@H](C)C(=O)N[C@@H](CO)C(=O)N[C@@H](Cc2ccccc2)C(=O)NCC(=O)N[C@H](C(=O)O)CSSC[C@H](N)C(=O)N1C			aqueous buffer	18 h, pH 7.4	solubility	851 µM (≈ 1150 µg/mL)
N=c1c2c(-c3ccccc3)c(-c3ccccc3)n(Cc3ccccc3)c2ncn1[C@H]1CC[C@H](O)CC1			female minipig, plasma	oral, 2.5 mg/kg, single dose	AUC(0-t)	73500 ng·h/mL
O=C[C@H](C[C@@H]1CCCNC1=O)NC(=O)[C@@H](NC(=O)/C=C/c1ccccc1)c1ccccc1	A549	cell growth or viability, MTT		24 h	CC50	> 100 µM
